# Measured values of several laboratories.
# Protocols differ between the studies behind these lines.
# SRC: Proto-oncogene tyrosine-protein kinase Src (SRC, Homo sapiens, UniProt P12931)
# CA9: Carbonic anhydrase 9 (CA9, Homo sapiens, UniProt Q16790)
# Sequence of UniProt P50613 (whole entry, looked up): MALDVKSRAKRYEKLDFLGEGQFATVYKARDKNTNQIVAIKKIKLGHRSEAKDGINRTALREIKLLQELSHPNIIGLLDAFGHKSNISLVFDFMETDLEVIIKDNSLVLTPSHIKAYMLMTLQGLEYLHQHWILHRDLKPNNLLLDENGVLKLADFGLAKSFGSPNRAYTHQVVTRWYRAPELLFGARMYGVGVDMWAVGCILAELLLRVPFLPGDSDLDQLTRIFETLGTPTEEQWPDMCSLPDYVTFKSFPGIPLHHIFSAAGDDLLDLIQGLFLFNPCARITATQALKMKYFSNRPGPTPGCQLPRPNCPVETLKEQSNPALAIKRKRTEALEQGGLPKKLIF
# Sequence of UniProt P54753 (whole entry, looked up): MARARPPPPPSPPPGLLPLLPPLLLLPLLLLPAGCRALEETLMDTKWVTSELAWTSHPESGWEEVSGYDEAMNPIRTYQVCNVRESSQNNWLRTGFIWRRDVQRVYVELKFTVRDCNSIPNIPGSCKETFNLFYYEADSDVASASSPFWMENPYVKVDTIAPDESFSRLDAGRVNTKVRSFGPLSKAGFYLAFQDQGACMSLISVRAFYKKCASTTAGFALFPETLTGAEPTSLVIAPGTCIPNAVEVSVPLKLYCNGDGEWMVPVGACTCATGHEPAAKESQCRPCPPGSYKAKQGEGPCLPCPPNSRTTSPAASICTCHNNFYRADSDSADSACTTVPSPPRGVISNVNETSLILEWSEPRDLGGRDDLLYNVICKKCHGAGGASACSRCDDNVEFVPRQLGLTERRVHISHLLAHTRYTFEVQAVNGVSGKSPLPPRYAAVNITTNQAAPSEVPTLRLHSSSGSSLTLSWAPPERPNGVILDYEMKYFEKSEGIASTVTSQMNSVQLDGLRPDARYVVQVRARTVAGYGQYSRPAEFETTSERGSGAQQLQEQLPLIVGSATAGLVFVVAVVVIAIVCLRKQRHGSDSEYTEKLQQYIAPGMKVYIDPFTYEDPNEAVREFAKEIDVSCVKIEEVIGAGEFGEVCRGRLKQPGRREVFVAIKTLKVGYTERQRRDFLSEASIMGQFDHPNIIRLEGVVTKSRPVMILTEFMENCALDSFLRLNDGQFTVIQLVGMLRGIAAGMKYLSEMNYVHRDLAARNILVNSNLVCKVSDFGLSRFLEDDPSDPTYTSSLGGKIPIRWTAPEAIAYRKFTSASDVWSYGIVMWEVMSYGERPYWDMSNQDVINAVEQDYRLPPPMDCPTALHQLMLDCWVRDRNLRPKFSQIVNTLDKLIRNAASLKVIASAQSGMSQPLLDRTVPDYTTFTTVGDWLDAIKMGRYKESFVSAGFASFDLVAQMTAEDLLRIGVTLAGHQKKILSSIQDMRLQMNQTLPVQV
Structure (SMILES),target or system,test,system,conditions,measurement,value
Cc1cc([C@@H](C)Nc2ccccc2C(=O)O)c2nc(N3CCC(F)(F)CC3)c(C#N)c(=O)n2c1,SRC,"binding, competition with immobilised ligand",,10 µM,remaining binding,93%
Cc1nn(-c2ccc(S(N)(=O)=O)cc2)c(C)c1CCC(=O)Nc1ccc(OCc2cn(C)nn2)cc1,CA9,"enzyme activity, inhibitor",,,IC50,24 nM
[2H]c1c([2H])c([C@]2([2H])CCCN2C(=O)C(C)(C)Oc2ccc3cn[nH]c3c2)c([2H])c([2H])c1C([2H])([2H])[2H],SRC,"binding, competition with immobilised ligand",,1 µM,remaining binding,93%
COc1cccc(-c2n[nH]c(SCc3ccccn3)n2)c1OC,,,"male Sprague-Dawley rat, plasma","intravenous, 1 mg/kg, 10 min, single dose",concentration,3280 ng/mL
C=CC(=O)N1CCC(COCC(=O)N2CCN(c3nc(-c4cnc(N)nc4C(F)F)nc(N4CCOC[C@@H]4C)n3)CC2)CC1,"CDK7 (Homo sapiens, UniProt P50613)","binding, competition with immobilised ligand",,1 µM,remaining binding,97%
CCCCC(=O)Nc1ccc(-c2ccc3ncn(CCC)c(=O)c3c2)cn1,"EPHB3 (Homo sapiens, UniProt P54753)","binding, competition with immobilised ligand",,0.5 µM,remaining binding,100%
Cc1ccc(NC(=O)COC(=O)c2ccc(O)c(-c3ccccc3)c2)cc1S(N)(=O)=O,CA9,"enzyme activity, inhibitor",,,IC50,279 nM
O=C(c1ccc(F)cc1)C1CCN(CCn2c(=O)[nH]c3ccccc3c2=O)CC1,,metabolic stability,"rat, liver microsomes",30 min,compound remaining,34.2%

# For quick reference, copied from above:
Structure (SMILES),target or system,test,system,conditions,measurement,value
C=CC(=O)N1CCC(COCC(=O)N2CCN(c3nc(-c4cnc(N)nc4C(F)F)nc(N4CCOC[C@@H]4C)n3)CC2)CC1,"CDK7 (Homo sapiens, UniProt P50613)","binding, competition with immobilised ligand",,1 µM,remaining binding,97%
